Assay results pooled from the literature.
Each line is one published result; not all experiments were run side by side. ± marks the error that the study gave.
uncharacterized protein: uncharacterized protein (Canis lupus familiaris, UniProt A0A8I3P1R6)
Peroxisome proliferator-activated receptor alpha: Peroxisome proliferator-activated receptor alpha (Rattus norvegicus, UniProt P37230)

`O=C1Nc2c(ccc(Cl)c2Cl)C1=NO` has an EC50 of 0.085 µM (KCNN4/CALM1 (Homo sapiens, UniProt O15554+P0DP23, N201A); ion current, activator, whole-cell patch clamp; N201A mutant).
With `CCCCC[C@H](O)/C=C/[C@H]1C(=O)C[C@H](O)[C@@H]1C/C=C\CCCC(=O)O` the EC50 was 4.17 µM (PTGDR (Homo sapiens, UniProt Q13258, K76R); Gs protein activation, agonist, BRET).
`COc1nccnc1CC(C)C` gave an EC50 of 148 ± 27.2 µM (uncharacterized protein; cAMP level, agonist, cAMP luminescence; HEK293 cells).
For `O=C(O)CNC(=O)c1ccco1`, the inhibition was -12.4% (THP-1; pyroptotic LDH release; 2 µM, 40 min, together with: LPS then nigericin).
`Cc1cnc(C)c(C)n1` has an EC50 of 600 ± 39.8 µM (uncharacterized protein; cAMP level, agonist, cAMP luminescence; HEK293 cells).
For `Cn1cc2c(C(=O)O)ccc(NS(=O)(=O)c3ccc(OCC4CCC4)c(Cl)c3)c2n1`, the EC50 was greater than 10 µM (DRD1 (Homo sapiens, UniProt P21728); antagonist).
`CC(=O)c1c(C)cc2cc(O)cc(O[C@@H]3O[C@H](CO)[C@@H](O)[C@H](O)[C@H]3O)c2c1O` gave a cell viability of 110 ± 9.74% (HK-2 co-cultured with HepaRG; MTT; 66.67 µM, 24 h; baseline: untreated control).
With `CC(C)C[C@H](NC(=O)C[C@H](O)[C@H](CC(C)C)NC(=O)[C@H](Cc1c[nH]cn1)NC(=O)CNC(=O)[C@@H](NC(=O)[C@H](C)NC(=O)[C@H](Cc1c[nH]c2ccccc12)NC(=O)[C@H](CCC(N)=O)NC(=O)[C@@H](Cc1ccccc1)NC(=O)COCCOCCNC(=O)CN1CCN(CC(=O)O)CCN(CC(=O)O)CCN(CC(=O)O)CC1)C(C)C)C(N)=O` [lutetium-177 labelled] the tissue uptake was 0.024 ± 0.008 %ID/g (female BALB/c nu/nu mice, lung; intravenous, 50 pmol, 24 h).
For `CCc1nccnc1CC`, the EC50 was 659 ± 24.9 µM (uncharacterized protein; cAMP level, agonist, cAMP luminescence; HEK293 cells).
`Cc1nn(-c2nc3c(F)cc(F)cc3s2)c(O)c1C(c1ccccc1C(F)(F)F)c1c(C)nn(-c2nc3c(F)cc(F)cc3s2)c1O` gave an EC50 of 3.19 µM (Cyclic GMP-AMP synthase, catalytic domain; with DNA (CGAS, Homo sapiens, UniProt Q8N884); cGAS-DNA phase separation, inhibitor).
For `Nc1ncnc2c1ncn2[C@@H]1O[C@H](COP(=O)(O)OP(=O)(O)O[C@H]2O[C@H](CO)[C@@H](O)[C@H](O)[C@H]2O)[C@@H](O)[C@H]1O`, the EC50 was 1.35 ± 0.123 µM (P2Y purinoceptor 14 (P2RY14, Homo sapiens, UniProt Q15391); calcium mobilisation, agonist; cells with Gαqi5; receptor mutant Wt).
`COc1c(O)c(C)cc2c1C(=O)c1c(O)cccc1C2=O` has a viability of 101 ± 11.2% (HK-2 co-cultured with HepaRG; MTT; 16.67 µM, 24 h; baseline: untreated control).
For `CN1CCN2c3ccccc3Cc3ccccc3C2C1` (centres unmarked), the EC50 was 0.851 µM (HTR1F (Homo sapiens, UniProt P30939); agonist).
`Cc1cnccn1` has an EC50 of greater than 1500 µM (uncharacterized protein; cAMP level, agonist, cAMP luminescence; HEK293 cells).
For `O=C(O)CCCc1cc2cc(Cl)ccc2n1S(=O)(=O)c1ccc2ncsc2c1`, the EC50 was 3 µM (Peroxisome proliferator-activated receptor alpha; receptor activation, agonist, luciferase reporter; serum-free, species rat).
`CCCCC[C@H](O)/C=C/[C@H]1[C@H](O)CC(=O)[C@@H]1C/C=C\CCCC(=O)O` has an EC50 of 0.00386 µM (PTGER1 (Homo sapiens, UniProt P34995, P39A); IP1 accumulation, agonist; AD293; EP1 P39A mutant).
With `Nc1nc2c(ncn2[C@@H]2O[C@@H]3COP(=O)(O)O[C@H]3[C@H]2O)c(=O)[nH]1` the EC50 was 197 ± 55.8 µM (Cone cGMP-gated channel (Morone saxatilis, UniProt Q3I0N1+Q3I0N2); channel current, agonist, suction electrode; Morone saxatilis, cone outer segments; together with: 0.5 µM Ca2+).
The EC50 of `Cc1cnc(C)cn1` is reported as greater than 1500 µM (uncharacterized protein; cAMP level, agonist, cAMP luminescence; HEK293 cells).
`CCOCc1nc(O)c(-c2nnc(Cc3ccc(Cl)cn3)o2)c(O)c1-c1c(OC)cccc1OC` has an EC50 of 0.00012 ± 2e-05 µM (Apelin receptor (APLNR, Homo sapiens, UniProt P35414); Gαi1 activation, agonist, BRET biosensor; HEK293).
With `NC1=NCC2c3ccccc3Cc3ccccc3N12` (centres unmarked) the EC50 was 2.86 µM (HTR1E (Homo sapiens, UniProt P28566); agonist).
For `CC(O)CN(CCN(CC(C)O)CC(C)O)CC(C)O` (centres unmarked), the inhibition was -18.2% (THP-1; pyroptotic LDH release; 2 µM, 40 min, together with: LPS then nigericin).
`CCC(C)c1nccnc1OC` (centres unmarked) has an EC50 of 159 ± 24.2 µM (uncharacterized protein; cAMP level, agonist, cAMP luminescence; HEK293 cells).
For `CCO[C@@H](Cc1ccc(OCCn2c(C)ccc2-c2ccc(SC)cc2)cc1)C(=O)O`, the EC50 was 0.3 µM (Peroxisome proliferator-activated receptor alpha; receptor activation, agonist, luciferase reporter; serum-free, species rat).

Excerpt of the above:
For `O=C(O)CCCc1cc2cc(Cl)ccc2n1S(=O)(=O)c1ccc2ncsc2c1`, the EC50 was 3 µM (Peroxisome proliferator-activated receptor alpha; receptor activation, agonist, luciferase reporter; serum-free, species rat).
